Published values pooled from the literature.
Compare with care: the assays were run in different laboratories. Values joined by “and” are separate records of one study, mostly repeats; a detail may differ.
Target: Endothelin-1 receptor (EDNRA, Homo sapiens, UniProt P25101)

Cc1ccc2c(n1)c(-c1cccc(S(C)(=O)=O)c1)c(C)n2C/C(F)=C/CN
inhibition (ligand displacement, radioligand; 10 µM): -5%

C/C(=N\OCCCN1CCCCC1)c1ccc(C(F)(F)F)cc1
activation (agonist, IP-One; 10 µM): 5.73%

Cc1cc(Nc2nc(C[C@@]3(C(=O)O)CCN(Cc4cccc(Cl)c4F)[C@H](C)C3)cc(C)c2F)[nH]n1
inhibition (inhibitor; 10 µM): -5.19%

CCN(CC)CCOc1ccc(-c2nnn(Cc3ccc(OC)cc3)c2N)cc1
inhibition (FLIPR calcium; HEK293; 10 µM): -3.49%

CS(C)(=O)=Nc1ccc(-c2ccc(-c3nc4cc(O[C@@H]5CO[C@H]6[C@@H]5OC[C@H]6O)[nH]c4cc3F)cc2)cc1
inhibition (calcium signal, antagonist; 10 µM): 30%

N[C@H](C(=O)N1CCCC1)C1CCN(c2nccc3c(-c4ncc(Cl)cc4Cl)cccc23)CC1
response (functional response, agonist; 10 µM): 4%

Cc1cc(-c2ccc3ccccc3c2)nnc1NCCN1CCN(C)CC1
activity (antagonist; 10000 nM; relative to: control): 0%

CN[C@@H]1[C@H](O)[C@H](NC)[C@H]2O[C@]3(O)[C@H](O[C@@H]2[C@H]1O)O[C@H](C)C[C@H]3NC(=O)Cc1cc(Cl)ccn1
inhibition (ligand displacement, radioligand; 10 µM): -3%

O=C(O)c1ccc(-c2nc(-c3ccccc3Cl)c3sccn23)cc1
specific binding (radioligand binding, safety screen panel; 10 µM; relative to: control): 102% and 110%

COc1ccc(F)cc1S(=O)(=O)Nc1cnc2c(c1)C(=O)NCCO2
inhibition (ligand displacement, radioligand; 10 µM): 4%

Cc1sc2c(c1C)C(c1ccc(Cl)cc1)=NC(CC(=O)OC(C)(C)C)c1nnc(C)n1-2 (stereo not drawn)
inhibition (ligand displacement, radioligand; 1 µM): 16%

CCc1nnc(-c2c(OC)cc(-c3cnc4cc(-c5cnn(C)c5)ccn34)cc2OC)o1
remaining binding (agonist radioligand, radioligand binding; 10 µM, SafetyScreen44 ETA replicate 2; lower = stronger displacement): 98.8%

Some of these lines once more:
Cc1cc(Nc2nc(C[C@@]3(C(=O)O)CCN(Cc4cccc(Cl)c4F)[C@H](C)C3)cc(C)c2F)[nH]n1
inhibition (inhibitor; 10 µM): -5.19%
